Results of several laboratories.
Each numbered part is a random draw from the data of one study; scales do not carry over between parts.

Set 1
Target: Ras GTPase-activating protein-binding protein 1, RRM domain (G3BP1, Homo sapiens, UniProt Q13283)
Chain of UniProt Q13283 (whole entry, looked up): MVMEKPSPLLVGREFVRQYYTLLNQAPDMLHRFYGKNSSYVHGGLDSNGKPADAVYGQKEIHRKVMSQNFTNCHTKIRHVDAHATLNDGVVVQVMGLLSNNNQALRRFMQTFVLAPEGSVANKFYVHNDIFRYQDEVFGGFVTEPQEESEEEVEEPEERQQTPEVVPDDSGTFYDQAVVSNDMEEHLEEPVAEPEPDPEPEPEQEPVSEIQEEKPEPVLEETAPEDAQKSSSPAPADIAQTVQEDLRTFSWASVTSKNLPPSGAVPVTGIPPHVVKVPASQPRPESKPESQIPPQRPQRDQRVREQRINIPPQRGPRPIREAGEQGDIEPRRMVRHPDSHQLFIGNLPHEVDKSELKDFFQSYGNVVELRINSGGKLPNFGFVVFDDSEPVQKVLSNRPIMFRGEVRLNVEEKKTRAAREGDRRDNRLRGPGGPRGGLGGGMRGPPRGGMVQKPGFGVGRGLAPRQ
Technique: RNA Bind-n-Seq
Form: RNA
Matrix: in vitro
Tested at: 1 µM
Notes: whole 134-nt RNA, ends assumed
Added: 150 mM KCl
Reference: input library
Direction: higher = stronger binding
The log2 enrichment of `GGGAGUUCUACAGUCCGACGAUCCACAGACAACCCGCACCCACACAGACACAGAGGGAAGGGGUUGGGAUGGGGACAGGGUGCACAGCAGGGCGGGGUAGGACCCCAGCCCCUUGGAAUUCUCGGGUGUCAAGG` is reported as -0.119.
The log2 enrichment of `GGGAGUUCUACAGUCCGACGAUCGUCCUGUGCUACACAUCGUAUGUACCGAAUCGGGAAAAAGGGAAAAAAAGGGAAAGGGAAAGUAUUAUGUUACGCCGUUCGGAUCUGCACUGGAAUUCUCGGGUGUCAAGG` is reported as 0.283.
`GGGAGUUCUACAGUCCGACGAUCUCCUUCCUUUUUUUGUCUUAAACAUAGGACAUGGAUUUGAUUGACAUACUUUGGAGGCAAGAUAUAGAUCUUGGAGUAAGUCGAGAAGUAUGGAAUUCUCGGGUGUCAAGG` gave a log2 enrichment of -0.48.
With `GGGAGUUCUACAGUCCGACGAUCUGUGAGACUGAAGAUUAUGGAGAAAAGUUUGAUGAAAAUGAUGUGAUUACAUGUUUUGCUGUAAGUUAAAGCUAACUUUCUAUGUAUAAAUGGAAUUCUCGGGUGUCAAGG` the log2 enrichment was -0.043.
The log2 enrichment of `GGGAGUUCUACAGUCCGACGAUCGUCCUGUGCUACACAUCGUAUGUACCGAAUCGGGUUUUUGGGUUUUUGGGUUUUUGGGAAAGUAUUAUGUUACGCCGUUCGGAUCUGCACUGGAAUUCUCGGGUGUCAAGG` is reported as 0.248.
`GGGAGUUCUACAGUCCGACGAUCAGUCCUGUGCUACACAUCGUAUGUACCGAAUCGGGAAAAAAAGGGUUUGGGUUUGGGAAAGUAUUAUGUUACGCCGUUCGGAUCUGCACUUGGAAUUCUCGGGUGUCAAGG` gave a log2 enrichment of 0.402.
`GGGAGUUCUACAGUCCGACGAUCUGUGCUACACAUCGUAUGUACCGAAUCGGGUUUUUUUGGGGUUUUUUUGGGGUUUUUUUGGGAAAGUAUUAUGUUACGCCGUUCGGAUCUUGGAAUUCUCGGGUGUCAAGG` has a log2 enrichment of -0.0982.
With `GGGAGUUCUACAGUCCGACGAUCGAGCUGGAAGCUAUCAAAGCUCGAGUCAGGGAGAUGGAGGAAGAAGCUGAGAAGCUAAAGGAGCUACAGAACGAGGUAGAGAAGCAGAUGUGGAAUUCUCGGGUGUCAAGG` the log2 enrichment was -0.0751.
`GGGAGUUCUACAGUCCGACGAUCGUCCUGUGCUACACAUCGUAUGUACCGAAUCGGGGUUUUUUGGUUUUUUGGUUUUUUGGAAAGUAUUAUGUUACGCCGUUCGGAUCUGCAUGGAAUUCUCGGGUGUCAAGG` has a log2 enrichment of -0.198.

Set 2
Target: Sal-like protein 4, full length isoform A (SALL4, Homo sapiens, UniProt Q9UJQ4, residues 1-1053)
Chain of UniProt Q9UJQ4 (whole entry, looked up): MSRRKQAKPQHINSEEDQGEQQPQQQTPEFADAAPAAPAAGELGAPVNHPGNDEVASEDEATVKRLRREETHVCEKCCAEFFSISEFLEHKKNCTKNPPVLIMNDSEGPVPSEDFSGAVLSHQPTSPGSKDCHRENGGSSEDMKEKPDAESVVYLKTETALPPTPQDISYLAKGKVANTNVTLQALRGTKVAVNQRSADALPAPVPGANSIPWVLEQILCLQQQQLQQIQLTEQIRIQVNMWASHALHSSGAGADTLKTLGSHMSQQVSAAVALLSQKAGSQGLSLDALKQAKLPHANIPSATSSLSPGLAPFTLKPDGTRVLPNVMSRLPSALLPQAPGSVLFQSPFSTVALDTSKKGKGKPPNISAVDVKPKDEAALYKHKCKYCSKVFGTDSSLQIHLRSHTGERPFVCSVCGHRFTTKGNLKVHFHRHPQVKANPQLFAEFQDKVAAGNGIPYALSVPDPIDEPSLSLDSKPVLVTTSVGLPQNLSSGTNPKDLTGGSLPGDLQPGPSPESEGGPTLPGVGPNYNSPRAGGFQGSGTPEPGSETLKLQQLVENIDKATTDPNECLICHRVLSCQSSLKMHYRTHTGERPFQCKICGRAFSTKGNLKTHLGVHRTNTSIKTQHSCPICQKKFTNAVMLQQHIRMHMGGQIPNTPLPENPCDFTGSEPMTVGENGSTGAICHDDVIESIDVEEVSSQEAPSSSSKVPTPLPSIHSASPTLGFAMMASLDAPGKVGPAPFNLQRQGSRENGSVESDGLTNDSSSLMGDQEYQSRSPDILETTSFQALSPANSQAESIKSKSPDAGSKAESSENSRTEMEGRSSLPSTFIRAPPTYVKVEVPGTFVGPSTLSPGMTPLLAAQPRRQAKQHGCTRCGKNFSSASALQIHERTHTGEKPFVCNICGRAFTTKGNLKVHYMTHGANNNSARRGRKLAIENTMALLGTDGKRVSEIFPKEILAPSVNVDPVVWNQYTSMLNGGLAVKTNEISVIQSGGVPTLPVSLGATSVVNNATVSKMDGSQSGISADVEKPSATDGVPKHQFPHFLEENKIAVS
Technique: universal PBM
Form: double-stranded DNA, one strand shown
Matrix: in vitro
Tested at: 600 nM
Notes: 8-mer, flanks averaged, mean of replicates
Direction: higher = stronger binding
With `CAAGTAGA` the E-score was 0.00281.
With `GAACAATC` the E-score was 0.0703.
`CATTCTCC` has an E-score of 0.0124.
For `ACGCGGTA`, the E-score was -0.209.
`AAGGGATC` has an E-score of -0.108.
`CACCTAGC` gave an E-score of -0.229.
The E-score of `AATATTTC` is reported as 0.445.
For `ATTTGGTA`, the E-score was 0.219.
The E-score of `GGTGATCA` is reported as -0.0332.
The E-score of `CGAGAGCC` is reported as -0.246.
`CAAACACA` gave an E-score of 0.142.
For `AAATCGAC`, the E-score was 0.0863.
`GAGGCGCA` gave an E-score of -0.233.
`GCTTATAC` has an E-score of 0.173.
For `AAGTCGCT`, the E-score was -0.0947.
The E-score of `GCAAGCTA` is reported as -0.0722.
For `CAGCCCGG`, the E-score was -0.29.
For `AAAACTTT`, the E-score was 0.184.
For `CTACCAGC`, the E-score was -0.171.
`CCATTGTA` has an E-score of 0.176.

Set 3
Target: Histone acetyltransferase KAT6A, both winged helices, GST fusion (KAT6A, Homo sapiens, UniProt Q92794, residues 1-181)
Technique: protein binding microarray
Form: double-stranded DNA, one strand shown
Matrix: in vitro
Tested at: not given
Notes: 8-mer, flanks averaged, mean of 2 arrays, mostly near background
Reference: not given
Direction: higher = stronger binding
Residues (chain): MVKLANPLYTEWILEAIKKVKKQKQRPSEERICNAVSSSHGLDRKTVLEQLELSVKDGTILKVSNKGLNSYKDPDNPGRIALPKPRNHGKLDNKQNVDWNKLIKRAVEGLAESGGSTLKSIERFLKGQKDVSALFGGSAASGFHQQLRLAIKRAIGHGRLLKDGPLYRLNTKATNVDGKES
`AAGAGTCA` has an E-score of -0.218.
For `AAGCACGC`, the E-score was 0.0302.
`GAATCATC` gave an E-score of 0.0432.
`ATAGATGG` has an E-score of -0.143.
The E-score of `ATCTACTA` is reported as 1.5e-05.
For `CCGCGGAG`, the E-score was 0.351.
`GGTAAACA` gave an E-score of 0.0468.
With `CGTGCTGA` the E-score was -0.0144.
With `AAGCTACT` the E-score was -0.232.
The E-score of `CAAAAACA` is reported as -0.0348.
The E-score of `CAACCATC` is reported as -0.0463.
With `CCCACCTA` the E-score was -0.17.
`AGATCACG` has an E-score of 0.0266.
For `ATCAATCC`, the E-score was -0.0954.
The E-score of `ACCACATC` is reported as -0.206.
For `GTGTGAAA`, the E-score was -0.0275.
The E-score of `GCATGAAA` is reported as -0.132.
The E-score of `CCCTATAG` is reported as -0.127.
The E-score of `AATAAGCC` is reported as 0.0474.
`ATCTCTAC` gave an E-score of -0.123.
For `TGTACTAA`, the E-score was -0.05.
`CATCAATG` gave an E-score of -0.0312.

Set 4
Target: RING finger protein unkempt homolog, zinc fingers 1-6, GST-SBP tag (UNK, Homo sapiens, UniProt Q9C0B0, residues 30-357)
Technique: RNA Bind-n-Seq
Form: RNA
Matrix: in vitro
Tested at: not given
Notes: RNA with constant flanks, human and mouse sites, ends assumed
Reference: input RNA pool
Direction: higher = stronger binding
Target sequence (chain): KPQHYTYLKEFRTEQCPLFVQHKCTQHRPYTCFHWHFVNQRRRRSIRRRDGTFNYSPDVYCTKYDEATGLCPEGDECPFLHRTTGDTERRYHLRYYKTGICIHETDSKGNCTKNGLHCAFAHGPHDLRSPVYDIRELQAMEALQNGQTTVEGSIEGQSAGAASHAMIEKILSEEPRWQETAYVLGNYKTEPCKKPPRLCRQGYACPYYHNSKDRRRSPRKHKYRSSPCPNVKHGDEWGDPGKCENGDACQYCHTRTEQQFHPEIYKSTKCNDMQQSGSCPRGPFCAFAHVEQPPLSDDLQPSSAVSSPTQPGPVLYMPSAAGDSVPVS
`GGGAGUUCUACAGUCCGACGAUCACACAGAUAAGGACACAGGAUGAAAGACGUGUGAGUUAAGUCUCAGCUUUCUGUAGAGAGAUAGACUAAAAAACAAAUUCAGGAAACCUAGAAAACAAUUAUUUCCCCUGGGCACAGACACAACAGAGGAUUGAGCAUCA` has a bound/input enrichment of 30.6 ratio.
`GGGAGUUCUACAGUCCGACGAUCACUGGAAAGACAGUUGCUACUGCAAGUCAAGAGAUAAUAAUCGCCAGCACAAAAGUUCUGGAAAUCCCACUUCUACCUGAAAAUAAUAUGUCAGCGAGUAUUGACUGUGCAGGUAUUUUACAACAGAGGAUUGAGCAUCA` has a bound/input enrichment of 0.137 ratio.
For `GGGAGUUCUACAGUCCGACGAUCGGAGUUAAAGCUGUGUUUAUGAAUAAACAUGACUGGUAUGAAGAAUAUCCAACCACACCUAGCUCUUUUGUUUUAAAUGGCUUUAUGUAUUCUUUAAUUGGGCUGUAUGACUUAAAAGAACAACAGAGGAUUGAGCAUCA`, the bound/input enrichment was 0.988 ratio.
The bound/input enrichment of `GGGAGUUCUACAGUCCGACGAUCGCUGAGCCUCAGCUGUAUGGUAAUGCCACCAGUGACCAUCCCAACAAUCAAGAUCAAAGUAGCAGUCUUCCUGAAGAAUGUGUACCUUCAGAUGAAAGUACUCCUCCGAGUAUUAAAAAACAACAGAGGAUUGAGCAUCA` is reported as 0.227 ratio.
`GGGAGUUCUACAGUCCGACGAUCAUAGAAGGCCCUACACCAGUUUCAGCACUACUACACUCAAGUACAAUAGUAGUUGCAGGAAUUUUCCUACUGGUCCGAUUCCACCCCCUCACGACUAAUAAUAACUUUAUUUUAACAACUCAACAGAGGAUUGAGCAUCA` gave a bound/input enrichment of 2.8 ratio.
For `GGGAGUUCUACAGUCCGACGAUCGAGAAGCCAAGUCAGCUUUGUUGUGAUUUGAUUUUUUUUAAAAAACUCUUGUACAAAACUGAUCUAAUUCUUCACUCCUGCUCCAAGGGCUGGGCUGUGGGUGGGAUACUGGGAUUUUGGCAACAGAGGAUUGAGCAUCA`, the bound/input enrichment was 0.501 ratio.
The bound/input enrichment of `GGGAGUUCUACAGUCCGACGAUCGAACUGGGUGACCACGUGACCAACUUACGCAAGAUGGGUGCCCCUGAAGCUGGCAUGGCAGAAUAUCUCUUUGACAAGCACACCCUGGGACACGGUGAUGAGAGCUAAGCUGACUUCCCCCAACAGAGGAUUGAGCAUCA` is reported as 0.0684 ratio.
`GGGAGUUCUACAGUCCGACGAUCGGUAUCCGAAGUCCCCGUGUUCGUCAUGUCGGCGUCUGUGGUGUCCGUCAUCUCCCGGUUCCUGGAGGAGUACUUGAGCUCCACUCCGCAGCGGCUGAAGUUGCUGGACGCCUAUCUCCUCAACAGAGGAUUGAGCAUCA` has a bound/input enrichment of 0.172 ratio.

Excerpt of the above (set 4):
`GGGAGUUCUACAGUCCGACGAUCACACAGAUAAGGACACAGGAUGAAAGACGUGUGAGUUAAGUCUCAGCUUUCUGUAGAGAGAUAGACUAAAAAACAAAUUCAGGAAACCUAGAAAACAAUUAUUUCCCCUGGGCACAGACACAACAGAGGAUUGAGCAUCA` has a bound/input enrichment of 30.6 ratio.
`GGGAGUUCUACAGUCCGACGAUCACUGGAAAGACAGUUGCUACUGCAAGUCAAGAGAUAAUAAUCGCCAGCACAAAAGUUCUGGAAAUCCCACUUCUACCUGAAAAUAAUAUGUCAGCGAGUAUUGACUGUGCAGGUAUUUUACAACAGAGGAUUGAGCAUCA` has a bound/input enrichment of 0.137 ratio.
For `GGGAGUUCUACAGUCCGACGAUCGGAGUUAAAGCUGUGUUUAUGAAUAAACAUGACUGGUAUGAAGAAUAUCCAACCACACCUAGCUCUUUUGUUUUAAAUGGCUUUAUGUAUUCUUUAAUUGGGCUGUAUGACUUAAAAGAACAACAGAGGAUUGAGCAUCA`, the bound/input enrichment was 0.988 ratio.
The bound/input enrichment of `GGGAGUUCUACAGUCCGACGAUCGCUGAGCCUCAGCUGUAUGGUAAUGCCACCAGUGACCAUCCCAACAAUCAAGAUCAAAGUAGCAGUCUUCCUGAAGAAUGUGUACCUUCAGAUGAAAGUACUCCUCCGAGUAUUAAAAAACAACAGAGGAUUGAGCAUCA` is reported as 0.227 ratio.
`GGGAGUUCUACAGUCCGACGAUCAUAGAAGGCCCUACACCAGUUUCAGCACUACUACACUCAAGUACAAUAGUAGUUGCAGGAAUUUUCCUACUGGUCCGAUUCCACCCCCUCACGACUAAUAAUAACUUUAUUUUAACAACUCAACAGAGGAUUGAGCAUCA` gave a bound/input enrichment of 2.8 ratio.
For `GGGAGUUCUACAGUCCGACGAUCGAGAAGCCAAGUCAGCUUUGUUGUGAUUUGAUUUUUUUUAAAAAACUCUUGUACAAAACUGAUCUAAUUCUUCACUCCUGCUCCAAGGGCUGGGCUGUGGGUGGGAUACUGGGAUUUUGGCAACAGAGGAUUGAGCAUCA`, the bound/input enrichment was 0.501 ratio.
The bound/input enrichment of `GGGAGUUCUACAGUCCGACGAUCGAACUGGGUGACCACGUGACCAACUUACGCAAGAUGGGUGCCCCUGAAGCUGGCAUGGCAGAAUAUCUCUUUGACAAGCACACCCUGGGACACGGUGAUGAGAGCUAAGCUGACUUCCCCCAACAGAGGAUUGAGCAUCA` is reported as 0.0684 ratio.
